Values quoted from earlier work as cited in several papers.
Numbers after ± are the reported error.
Organism: HIV-1

| SMILES | test | test system | conditions | endpoint | result |
| --- | --- | --- | --- | --- | --- |
| C[C@@H]1CCO[C@H]2Cn3cc(C(=O)NCc4ccc(F)cc4F)c(=O)c(O)c3C(=O)N12 | viral replication, lentiviral vector | wild-type integrase | – | EC50 | 1.6 ± 0.9 nM |
| CC(=O)c1ccc(C)cc1NC(C(N)=O)c1c(Cl)cccc1Cl (stereo not drawn) | viral replication | – | – | EC50 | 13 nM |
| COc1ccccc1NC(=O)c1ccccc1Sc1ccc([N+](=O)[O-])cc1 | viral replication | non-permissive cells expressing APOBEC3G | – | IC50 | 6000 nM |
| CC(C)CN(C[C@@H](O)[C@H](Cc1ccccc1)NC(=O)O[C@H]1CO[C@H]2OCC(F)(F)[C@H]21)S(=O)(=O)c1ccc(N)cc1 | viral replication | multidrug resistant strains | range over seven strains | EC50 | 2 to 20 nM |
| Cc1nnc(C(=O)NC(C)(C)c2nc(C(=O)NCc3ccc(F)cc3)c(O)c(=O)n2C)o1 | viral replication, lentiviral vector | wild-type integrase | – | EC50 | 4 ± 2 nM |
| CC(C)CN(C[C@@H](O)[C@H](Cc1cc(F)cc(F)c1)NC(=O)O[C@H]1C2COC3OCC1C3C2)S(=O)(=O)c1ccc2nc(NC3CC3)sc2c1 (stereo partly drawn) | viral replication | including drug-resistant strains | – | IC50 | 0.019 nM |
| Cc1nc([C@@H](CN)NC(=O)c2ccc(-c3ccc(F)c(F)c3)[nH]2)sc1CO (single isomer, unassigned) | viral infection | TZM-bl, HXB2 Env pseudovirus | single-cycle | IC50 | 3300 ± 300 nM |
| Cn1c(Cn2ccc(C(F)(F)F)c(Oc3cc(Cl)cc(C#N)c3)c2=O)n[nH]c1=O | viral replication, MTT | MT-4, RES056 K103N/Y181C | – | EC50 | 128 ± 60.6 nM |
| CC1(C)CC(NC(=O)C(=O)Nc2ccc(Cl)cc2)CC(C)(C)N1 | single-cycle viral replication | TZM-bl, HXB2 | – | EC50 | 6900 ± 900 nM |

Excerpt of the above:
| SMILES | test | test system | conditions | endpoint | result |
| --- | --- | --- | --- | --- | --- |
| COc1ccccc1NC(=O)c1ccccc1Sc1ccc([N+](=O)[O-])cc1 | viral replication | non-permissive cells expressing APOBEC3G | – | IC50 | 6000 nM |
| CC(C)CN(C[C@@H](O)[C@H](Cc1ccccc1)NC(=O)O[C@H]1CO[C@H]2OCC(F)(F)[C@H]21)S(=O)(=O)c1ccc(N)cc1 | viral replication | multidrug resistant strains | range over seven strains | EC50 | 2 to 20 nM |
